Published values from different studies.
Numbered parts are unrelated; each lists some results of a single study. “And” joins repeats or separate records; there may be more than shown. ± marks the error that the study gave.
UniProt Q695T7, sequence (whole entry, looked up): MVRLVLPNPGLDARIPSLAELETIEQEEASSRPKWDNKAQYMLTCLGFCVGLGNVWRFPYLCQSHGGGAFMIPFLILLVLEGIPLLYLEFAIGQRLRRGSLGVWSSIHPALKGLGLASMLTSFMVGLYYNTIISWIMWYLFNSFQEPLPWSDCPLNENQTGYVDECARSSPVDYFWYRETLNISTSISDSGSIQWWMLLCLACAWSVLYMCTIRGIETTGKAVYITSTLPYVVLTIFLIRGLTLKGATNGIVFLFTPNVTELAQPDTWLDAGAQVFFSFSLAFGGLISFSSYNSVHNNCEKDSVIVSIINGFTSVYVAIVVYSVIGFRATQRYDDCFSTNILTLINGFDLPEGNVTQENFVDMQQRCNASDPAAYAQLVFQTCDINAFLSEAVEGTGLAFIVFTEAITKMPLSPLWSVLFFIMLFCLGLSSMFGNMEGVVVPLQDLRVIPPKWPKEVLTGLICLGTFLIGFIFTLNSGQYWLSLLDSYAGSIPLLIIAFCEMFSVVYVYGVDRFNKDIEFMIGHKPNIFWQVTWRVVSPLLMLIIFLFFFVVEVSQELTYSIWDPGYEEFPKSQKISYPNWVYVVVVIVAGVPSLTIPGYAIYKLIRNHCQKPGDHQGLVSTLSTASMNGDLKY
UniProt P41143, sequence (whole entry, looked up): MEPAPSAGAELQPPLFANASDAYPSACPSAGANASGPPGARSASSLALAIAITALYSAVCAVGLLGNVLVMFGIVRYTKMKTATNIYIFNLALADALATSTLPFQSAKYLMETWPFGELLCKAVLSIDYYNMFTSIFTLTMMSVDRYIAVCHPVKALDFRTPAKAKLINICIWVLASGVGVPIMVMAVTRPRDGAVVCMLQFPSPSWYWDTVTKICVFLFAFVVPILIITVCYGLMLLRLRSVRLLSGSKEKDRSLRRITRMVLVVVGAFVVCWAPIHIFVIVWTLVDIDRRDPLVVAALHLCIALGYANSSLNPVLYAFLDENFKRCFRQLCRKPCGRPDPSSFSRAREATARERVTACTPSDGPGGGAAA

Block 1
SMILES: Cn1cc(-c2cccc(CN3CCC4(CC3)COc3c4ccc4c3CN([C@H]3CCC(=O)NC3=O)C4=O)c2)cn1
Host: Crbn I391V mouse, MC-38 tumour
Quantity: body weight change
oral, daily, 30 mg/kg, day 12, anti-PD1 combination study: 3.8% and -0.4% and 4.8% and 6.5%
oral, 30 mg/kg once daily, day 18: 6.2% and 2.8% and -1.8% and 0.9% and 3.8%
oral, daily, 30 mg/kg, day 5, anti-PD1 combination study: -2.2% and 6% and 4.5% and 5.7% and 4.9%
oral, daily, 30 mg/kg, day 8, anti-PD1 combination study: 0.7% and 0% and -0.4% and -4.1% and 0.4%
oral, daily, 30 mg/kg, day 19, anti-PD1 combination study: 6.5% and -1% and 5.6% and 4.9% and 5.2%
30 mg/kg, day 4, together with: anti-LAG3 antibody 10 mg/kg weekly: -3.8% and -6.3% and -7% and -5.7% and -5.5%
oral, 30 mg/kg once daily, day 10: -5% and -4% and -3.2% and -1.2% and 0%
30 mg/kg, day 15, together with: anti-LAG3 antibody 10 mg/kg weekly: -5.5% and 2.9% and 8.5% and -4.1% and -0.8% and -0.4% and -6.3% and -5.9%
oral, 30 mg/kg once daily, day 1: 0%
30 mg/kg, day 6, together with: anti-LAG3 antibody 10 mg/kg weekly: -1.2% and -0.4% and 4.7% and -4.6%

Block 2
Compound: CCCCC[C@@H](O)CC(=O)N[C@H]1COC(=O)[C@H](CO)NC(=O)[C@H](Cc2ccccc2)NC(=O)[C@@H](Cc2c[nH]c3ccccc23)NC(=O)[C@@H](C(C)O)NC(=O)[C@H](CC(N)=O)NC(=O)[C@@H](C(C)C)NC(=O)[C@H](CC(C)C)NC(=O)[C@@H](Cc2ccc(O)cc2)N(C)C(=O)CNC(=O)[C@H](CO)NC(=O)[C@@H](CC(N)=O)NC1=O (some centres unmarked)
Host: mouse, S. aureus infection
Route: subcutaneous
Quantity: survival
30 mg/kg, day 0: 100%
10 mg/kg, day 1: 60%
60 mg/kg, day 0: 100%

Other studies, line by line
Cc1c(NC(=O)c2cccn(-c3ccc(F)cc3)c2=O)ccc(Oc2ccnc(NC(=O)C3CC3)c2)c1C
viability (L929; CCK-8; 50 µM, together with: zVAD): 70.6% and 71.2% and 72.8%

CCCNC(=O)COc1ccc(Br)c(C)c1
remaining transport activity (SLC6A19 (Homo sapiens, UniProt Q695T7); inhibitor, L-[14C]leucine uptake; CHO-BC cells; 0.03 µM, 6 min, 37 °C, unit not given, together with: GPNA 3 mM, JPH203 3 µM; reference: uninhibited cells): 0.867

Cc1ccc(O)c(C)c1-c1cnc2[nH]c(-c3cnc(N4CCC(CN5CCN(c6ccc(C(=O)NC7CCC(=O)NC7=O)c(F)c6)CC5)CC4)nc3)cc2c1C#N (racemic)
pCDK1 (Thr14) level (HCC1569; in-cell western, measured: CDK1 phospho-Thr14; 123.46 nM): 45.6% and 41%

CC(C)OC(=O)[C@H](CCC(=O)C=[N+]=[N-])NC(=O)[C@H](Cc1c[nH]c2ccccc12)NC(=O)C12CCN(CC1)CC2
DON concentration (P493B lymphoma cells; human plasma; concentration not given, plasma fraction of partition): 0 nmol/mL

FC(F)(F)c1ccc(C2=NOC3(NC(c4ccccc4)=NO3)N2c2ccccc2)cc1 (centres unmarked)
IC50 (Plasmodium falciparum; parasite growth; DD2; 72 h, drug-resistant strain, blood stage): 4.6 µM

Cc1ccc(O)c(C)c1-c1cnc2[nH]c(-c3cnc(N4CCC(CN5CCN(c6ccc(N7CCC(=O)NC7=O)cc6F)CC5)CC4)nc3)cc2c1C#N
pCDK1 (Thr14) level (HCC1569; in-cell western, measured: CDK1 phospho-Thr14; 37.04 nM): 19% and 28.9%

NC(=O)NCCCCCCN1CCC23c4c5ccc(O)c4OC2c2nc4ccccc4cc2CC3(O)C1C5 (centres unmarked)
Emax (Delta-type opioid receptor, with Gi1 (OPRD1, Homo sapiens, UniProt P41143); human cells): 54 ± 3%

Some of these lines once more (other studies, line by line):
Cc1ccc(O)c(C)c1-c1cnc2[nH]c(-c3cnc(N4CCC(CN5CCN(c6ccc(N7CCC(=O)NC7=O)cc6F)CC5)CC4)nc3)cc2c1C#N
pCDK1 (Thr14) level (HCC1569; in-cell western, measured: CDK1 phospho-Thr14; 37.04 nM): 19% and 28.9%
